Published values pooled from the literature.
Protocols differ between the studies behind these lines. Values joined by “and” are separate records of one study, mostly repeats; a detail may differ. ± gives the spread as reported.

Compound	test	system	setting	how to read	quantity	result
CCCCCOc1ccc(-c2ccc(-c3ccc(C(=O)N[C@H]4C[C@@H](O)[C@@H](OCC[N+](C)(C)C)NC(=O)[C@@H]5[C@@H](O)[C@@H](C)CN5C(=O)[C@H]([C@@H](C)O)NC(=O)[C@H]([C@H](O)[C@@H](O)c5ccc(O)cc5)NC(=O)[C@@H]5C[C@@H](O)CN5C(=O)[C@H]([C@@H](C)O)NC4=O)cc3)cc2)cc1		adult patients in ICU, plasma	intravenous, 400 mg loading dose, after first dose, geometric mean		Cmin	1940 ng/mL
COc1ccc([C@@H]2CC(=O)c3c(O)cc(O)cc3O2)cc1O		male Sprague-Dawley rats, lean, faeces	oral, 100 mg/kg of neohesperidin, 48 h		cumulative faecal excretion	3470 ± 1020 ng
CCC[C@@](N)(CO)CCc1ccc(OCCCCCC(C)C)cc1		hound dogs, male	oral, 5 mg/kg, capsule, fed state, median		half-life	9.2 h
Cn1cncc1-c1c(F)cncc1NC(=O)c1c(N)nn2cc(F)cnc12		human patients	oral, 180 mg once daily		grade ≥3 anaemia incidence	73%
CC[C@H](C)[C@H](NC(=O)[C@H](CCCCN)NC(=O)[C@H](CCC(=O)O)NC(=O)[C@H](CCCCN)NC(=O)[C@H](CO)NC(=O)[C@H](CCCCN)NC(=O)[C@H](CCCNC(=N)N)NC(=O)[C@H](Cc1ccccc1)NC(=O)[C@H](Cc1ccccc1)NC(=O)[C@H](CC(=O)O)NC(=O)CNC(=O)[C@H](CC(C)C)NC(=O)[C@@H](N)CC(C)C)C(=O)NCC(=O)N[C@@H](CCCCN)C(=O)N[C@@H](CCC(=O)O)C(=O)N[C@@H](Cc1ccccc1)C(=O)N[C@@H](CCCCN)C(=O)N[C@@H](CCCNC(=N)N)C(=O)N[C@H](C(=O)N[C@H](C(=O)N[C@@H](CCC(N)=O)C(=O)N[C@@H](CCCNC(=N)N)C(=O)N[C@H](C(=O)N[C@@H](CCCCN)C(=O)N[C@@H](CC(=O)O)C(=O)N[C@@H](Cc1ccccc1)C(=O)N[C@@H](CC(C)C)C(=O)N[C@@H](CCCNC(=N)N)C(=O)N[C@@H](CC(N)=O)C(=O)N[C@@H](CC(C)C)C(=O)N[C@H](C(=O)N1CCC[C@H]1C(=O)N[C@@H](CCCNC(=N)N)C(=O)N[C@H](C(=O)N[C@@H](CCC(=O)O)C(=O)N[C@@H](CO)C(=O)O)[C@@H](C)O)C(C)C)[C@@H](C)CC)C(C)C)[C@@H](C)CC	LC-MS	buffer with human neutrophil elastase	40 µM, 300 min, pH 7.5, 37 °C	relative to: 0 h	remaining intact peptide	1.03% and 1.32% and 1.29%
CC(C)C[C@H](NC(=O)[C@H](CCCCN)NC(=O)OCC1c2ccccc2-c2ccccc21)C(=O)N[C@H](C(=O)N[C@@H](Cc1ccccc1)C(=O)N[C@@H](Cc1ccccc1)C(=O)N[C@@H](CCCCN)C(=O)NCC(=O)N[C@@H](Cc1ccccc1)C(=O)N[C@@H](C)C(=O)N[C@@H](Cc1c[nH]c2ccccc12)C(=O)N[C@@H](CC(N)=O)C(=O)N[C@H](C(=O)N[C@H]1CSSC[C@@H](C(=O)N[C@@H](Cc2c[nH]cn2)C(=O)N[C@@H](CCCNC(=N)N)C(=O)N[C@@H](CCCNC(=N)N)C(=O)N[C@@H](C)C(=O)N[C@@H](CC(N)=O)C(N)=O)NC(=O)[C@H](C(C)C)NC(=O)[C@H](CCCNC(=N)N)NC(=O)[C@H](C(C)C)NC(=O)CNC(=O)[C@H](CC(N)=O)NC(=O)[C@H](CCCNC(=N)N)NC(=O)[C@H](Cc2ccc(O)cc2)NC(=O)[C@H](C(C)C)NC1=O)C(C)C)C(C)C		ICR mice, blood	intraperitoneal, 5 mg/kg, day 5		lymphocytes	74.7 ± 1.19%
C[C@@H]1OC(=O)NN=C1c1ccc(-c2ccc(F)cc2)c(C(F)(F)F)c1	phase I trial, measured: Nausea worst grade 1	human patients	5 mg loading then 0.25 mg daily		patients with adverse event	100%
Nc1ncnc2c1ncn2[C@@H]1O[C@@H]2COP(=O)([S-])O[C@@H]3[C@H](O)[C@@H](COP([O-])(=S)O[C@H]2[C@H]1O)O[C@H]3n1cnc2c(N)ncnc21.[Na+].[Na+] (some centres unmarked)		non-tumor-bearing mice, serum	intravenous, 1 mg/kg, toxicity study		ALP	109 ± 28.5 U/L
O=C1Nc2cc3[nH]nc(-c4ccncc4)c3cc2CN1Cc1ccccc1	CTCAE v4.03	advanced solid tumour patients	intravenous, 7.2 mg/kg, schedules 1/2		patients with diarrhoea	0%
CCc1nc(C(N)=O)c(Nc2ccc(N3CCC(N4CCN(C)CC4)CC3)c(OC)c2)nc1NC1CCOCC1		patients, plasma	oral, 80 mg once daily, cycle 1 day 15, median		Cmin	223 ng/mL
N#C[C@@]1(n2ccc(N)nc2=O)O[C@H](CO)[C@@H](O)[C@H]1O		CD-1 mouse, lung	intravenous, dose not given, 7 h		concentration	1540 nM and 1220 nM and 830 nM
COc1ncccc1-c1cnn2ccc(N3CCN(C(=O)OC(C)C)CC3)nc12		rat, CCI mechanical hyperalgesia model, brain	oral, 30 mg/kg, 210 min		drug concentration	7300 nM
CCCCCCCCCCCCCCCC(=O)N[C@@H](CCC(=O)NCCCC[C@H](NC(=O)[C@H](CC(=O)O)NC(=O)[C@H](CO)NC(=O)[C@@H](NC(=O)[C@H](Cc1ccccc1)NC(=O)[C@@H](NC(=O)CNC(=O)[C@H](CCC(N)=O)NC(=O)[C@H](CO)NC(=O)[C@@H](N)Cc1c[nH]cn1)[C@@H](C)O)[C@@H](C)O)C(=O)N[C@@H](CO)C(=O)N[C@@H](CCC(=O)O)C(=O)N[C@@H](Cc1ccc(O)cc1)C(=O)N[C@@H](CC(C)C)C(=O)N[C@@H](CC(=O)O)C(=O)N[C@@H](CO)C(=O)N[C@@H](CCC(=O)O)C(=O)N[C@@H](CCCNC(=N)N)C(=O)N[C@@H](C)C(=O)N[C@@H](CCCNC(=N)N)C(=O)N[C@@H](CC(=O)O)C(=O)N[C@@H](Cc1ccccc1)C(=O)N[C@H](C(=O)N[C@@H](C)C(=O)N[C@@H](Cc1c[nH]c2ccccc12)C(=O)N[C@@H](CC(C)C)C(=O)N[C@@H](CCC(=O)O)C(=O)N[C@@H](C)C(=O)NCC(=O)NCC(=O)O)C(C)C)C(=O)O		human, CrCl < 20 mL/min	sc, 100 µg single dose		treatment-related adverse events	33.3%
O=C(C1CCCCC1)N1CC(=O)N2CCc3ccccc3[C@@H]2C1		NMRI mouse, female, S. mansoni-infected, plasma	oral, 400 mg/kg, dosed as racemate		Cmax of (R)-enantiomer	6300 nM
Cc1cccc(Cn2nc(C3CC3)c3c(NC(=O)c4cnc5cc(OCCN6CCN(C)CC6)ccn45)cccc32)n1	CTCAE v4.03, measured: blood alkaline phosphatase increased	patients with advanced solid tumours	oral, all dose levels, added: pembrolizumab 2 mg/kg IV every 3 weeks		all-cause adverse events	31.6%
COS(C)(=O)=O		female Hsd:ICR (CD-1) mouse, bone marrow	oral, 40 mg/kg/day, positive control		PCE to total erythrocytes ratio	0.447
CN1CCN(c2cccc3c2CCN(C(=O)/C=C/c2c(-n4cnnn4)ccc(Cl)c2F)[C@@H]3C(=O)Nc2ccc(C(=O)O)cc2)C(=O)C1		healthy human subjects	intravenous infusion, 9 mg/h, 5 days		deaths	0%
CO[C@H]1C[C@@H]2CC[C@@H](C)[C@@](O)(O2)C(=O)C(=O)N2CCCC[C@H]2C(=O)O[C@H]([C@H](C)C[C@@H]2CC[C@@H](OC(=O)NCCOCCOCCOCCOCCOCCOCCOCCOCCC(=O)N3CCc4cc(Cn5nc(-c6ccc7oc(N)nc7c6)c6c(N)ncnc65)ccc4C3)[C@H](OC)C2)C[C@@H](O)[C@H](C)/C=C(\C)[C@@H](O)[C@@H](OC)C(=O)[C@H](C)C[C@H](C)/C=C/C=C/C=C/1C		patients with advanced solid tumours	intravenous, 6 mg weekly, grade 3 or higher		AE leading to dose interruption	41.7%
C[C@@H]1NC(=O)[C@H](CCCCNC(=O)CO/N=C/C(=O)NCCCC[C@@H]2NC(=O)[C@@H](Cc3ccccc3)NC(=O)[C@H](CC(=O)O)NC(=O)CNC(=O)[C@H](CCCNC(=N)N)NC2=O)NC(=O)CNC(=O)[C@@H]2CCCN2C(=O)[C@H](CCCCNC(=O)CO/N=C/C(=O)NCCCC[C@@H]2NC(=O)[C@@H](Cc3ccccc3)NC(=O)[C@H](CC(=O)O)NC(=O)CNC(=O)[C@H](CCCNC(=N)N)NC2=O)NC(=O)[C@H](CCCCNC(=O)CCNC(=O)CCNC(=O)CCNC(=O)[C@H](CCCCN)NC(=O)[C@H](Cc2ccccc2)NC(=O)CNC(=O)CN2CCCNCCNCCCNCC2)NC(=O)[C@H](CCCCNC(=O)CO/N=C/C(=O)NCCCC[C@@H]2NC(=O)[C@@H](Cc3ccccc3)NC(=O)[C@H](CC(=O)O)NC(=O)CNC(=O)[C@H](CCCNC(=N)N)NC2=O)NC(=O)CNC(=O)[C@@H]2CCCN2C(=O)[C@H](CCCCNC(=O)CO/N=C/C(=O)NCCCC[C@@H]2NC(=O)[C@@H](Cc3ccccc3)NC(=O)[C@H](CC(=O)O)NC(=O)CNC(=O)[C@H](CCCNC(=N)N)NC2=O)NC1=O [copper-64 labelled]	PET imaging	mouse, U-87 MG tumour xenograft, tumor	intravenous, 24 h		tissue uptake	1.81 ± 0.29 %ID/g
O=C(Nc1ccccc1)C1CCN(C(=O)Oc2cccnc2)CC1		healthy women	oral, 20 mg, 7 days		adverse event Pruritus	7.1%
CN1CC[C@@H](c2c(O)cc(O)c3c(=O)cc(-c4ccc(C(F)(F)F)cc4Cl)oc23)[C@@H]1CO	measured: Neutropenia	relapsed or refractory haematological malignancies	oral, dose not given, all arms		patients with adverse event	10%
CC(C)(C)c1cc(-n2nc3ccccc3n2)c(O)c(C(C)(C)C)c1	exposure assessment	human, age 21-60 years	concentration not given, spray sunscreen, 95th percentile		daily dermal uptake, percentile	16.5 ng/kg body weight/day
CC1(C)[C@H](C(=O)OCc2cccc(Oc3ccccc3)c2)[C@@H]1C=C(Cl)Cl	measured: CYP2C19	human, age 6 months, recombinant human CYP2C19	0.1 µM		enzyme contribution to clearance	2.5%
COc1cc2c(Oc3ccc4[nH]c(C)cc4c3F)ccnc2cc1OCC1(N)CC1		sarcoma, recurrent or refractory, high-risk, paediatric	concentration not given, grade 3, whole group		abnormal ECG T wave incidence	0%
CC(C)(O)c1cc(Nc2cc(Oc3cn(C4CC4)nc3C3CCOCC3)ccn2)ccn1	measured: Cough	patients with advanced cancer	oral, dose not given		treatment-emergent adverse events	0%
CCc1ccc(CC/C=C/c2ccc3c(c2)C(=O)CC3)cc1		Sprague-Dawley rat, female	oral, 450 mg/kg/day, 14 days		Globulin	22.3 g/L
[2H]C([2H])([18F])[C@]([2H])(N)C(=O)O	PET	athymic nude mouse, U-87 MG tumour	90 min scan		bone uptake	~2 %ID/cc
O=[N+]([O-])c1ccc2c(c1)S(=O)(=O)C=C2		male C57BL/6 mice, blood	intraperitoneal, 10 mg/kg, day 8, group average		haemoglobin	170 g/L
O.O.O.O.O.O.[Cl-].[Cl-].[Co+2]		rat female, faeces	oral, 10 mg/kg single, day 3	relative to: vehicle control subtracted	cobalt in faeces	0.35 µg/g

Some of these lines once more:
Compound	test	system	setting	how to read	quantity	result
O=C(Nc1ccccc1)C1CCN(C(=O)Oc2cccnc2)CC1		healthy women	oral, 20 mg, 7 days		adverse event Pruritus	7.1%
CN1CC[C@@H](c2c(O)cc(O)c3c(=O)cc(-c4ccc(C(F)(F)F)cc4Cl)oc23)[C@@H]1CO	measured: Neutropenia	relapsed or refractory haematological malignancies	oral, dose not given, all arms		patients with adverse event	10%
